# Results of several laboratories.
# Target: Kappa-type opioid receptor (OPRK1, Homo sapiens, UniProt P41145)
Compound,assay,test system,setting,scale,quantity,result
Cn1cccc1-c1cccnc1,binding,,50 µM,,inhibition,-7.64%
CS(=O)(=O)c1ccc(C(=O)N[C@H]2CC[C@@]3(O)[C@H]4Cc5ccc(O)c6c5[C@@]3(CCN4CC3CC3)[C@H]2O6)s1.Cl,radioligand binding,CHO membranes,,baseline: Ki µ over Ki κ,selectivity ratio,4.6
CN[C@@]1(c2ccccc2Cl)CCCCC1=O,"radioligand binding, agonist, radioligand displacement",,30 µM,,inhibition,22%
Cl.O=C(N[C@H]1CC[C@@]2(O)[C@H]3Cc4ccc(O)c5c4[C@@]2(CCN3CC2CC2)[C@H]1O5)c1ccc(Br)s1,radioligand binding,CHO membranes,,baseline: Ki µ over Ki κ,selectivity ratio,4
C/C=C1/CN2CC[C@]34C(=C(C(=O)OC)[C@H]1C[C@H]23)Nc1ccc(I)cc14,radioligand binding,CHO cell membranes,together with: [3H]diprenorphine,baseline: KOR over MOR,selectivity ratio,164 fold
Brc1ccc2c(c1)C(c1ccccn1)=NCc1c(-c3cnco3)ncn1-2,radioligand binding,rat,together with: [3H]U69593,baseline: KOR over benzodiazepine site,selectivity ratio,14 fold
Cl.NS(=O)(=O)c1ccc(C(=O)N[C@H]2CC[C@@]3(O)[C@H]4Cc5ccc(O)c6c5[C@@]3(CCN4CC3CC3)[C@H]2O6)s1,radioligand binding,CHO membranes,,baseline: Ki µ over Ki κ,selectivity ratio,4.32
CN1CCN(c2cc(-c3ccncc3)c(-c3ccc4ccccc4c3)nn2)CC1,"antagonist, FLIPR",,10 µM,,inhibition,10.5%
CN(C)C1(CNC(=O)c2ccc3c(c2)CCN3C(=O)c2ccccc2)CCOCC1,,,10 µM,,inhibition,> 50%
O=C(Nc1cnccc1Cl)N1CCN(Cc2ccc3c(c2)OC(F)(F)O3)CC1,"radioligand binding, inhibitor",,"10 µM, human, together with: [3H]diprenorphine",,inhibition,4%
C/C=C1/C[N+]2(CC3CC3)CC[C@]34C(=C(C(=O)OC)[C@H]1C[C@@H]32)Nc1ccccc14.[Br-] (stereo partly shown),"cAMP inhibition, agonist",CHO-K1,,baseline: relative to 1,EC50 fold decrease,~4 fold
Cl.O=C(N[C@H]1CC[C@@]2(O)[C@H]3Cc4ccc(O)c5c4[C@@]2(CCN3CC2CC2)[C@H]1O5)c1ccc(F)s1,radioligand binding,CHO membranes,,baseline: Ki µ over Ki κ,selectivity ratio,7.59
O=C(Nc1cccnn1)N1CCC(=Cc2cccc(Oc3ccc(C(F)(F)F)cn3)c2)CC1,"radioligand binding, inhibitor",,"50 µM, human, together with: [3H]diprenorphine",,inhibition,94%

# Excerpt of the above:
Compound,assay,test system,setting,scale,quantity,result
Cl.O=C(N[C@H]1CC[C@@]2(O)[C@H]3Cc4ccc(O)c5c4[C@@]2(CCN3CC2CC2)[C@H]1O5)c1ccc(F)s1,radioligand binding,CHO membranes,,baseline: Ki µ over Ki κ,selectivity ratio,7.59
C/C=C1/C[N+]2(CC3CC3)CC[C@]34C(=C(C(=O)OC)[C@H]1C[C@@H]32)Nc1ccccc14.[Br-] (stereo partly shown),"cAMP inhibition, agonist",CHO-K1,,baseline: relative to 1,EC50 fold decrease,~4 fold
